Measured values from different studies.
Parts stem from different laboratories: compare values within a part only. Positions count from the first letter of the parent shown.

Block 1 — target: CCNA1, cyclin fold, Cln2 fusion (human); method: yeast growth competition, sequencing; matrix: yeast; notes: weak parent motif; baseline: not given; reading: higher = stronger binding; measurement: normalised enrichment score
Starting sequence: LLGL2 docking peptide (human); KSLKKSLRQSFRR; partner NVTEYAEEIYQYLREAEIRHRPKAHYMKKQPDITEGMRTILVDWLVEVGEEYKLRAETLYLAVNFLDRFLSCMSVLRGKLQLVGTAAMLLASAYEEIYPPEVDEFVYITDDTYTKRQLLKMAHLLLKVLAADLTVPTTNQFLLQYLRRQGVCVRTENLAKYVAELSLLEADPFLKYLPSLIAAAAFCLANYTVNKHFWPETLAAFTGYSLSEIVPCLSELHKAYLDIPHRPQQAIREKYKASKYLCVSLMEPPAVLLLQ
KSLKKSLRQSFRA [R13A]: 0.445
KSLKKSLRASFRR [Q9A]: 0.404
KSLKKSLRQSFAR [R12A]: 0.295
KSLKKSLRQAFRR [S10A]: -0.412
KALKKSLRQSFRR [S2A]: 0.385
KSLKKSLRQSARR [F11A]: 0.601

Block 2 — method: RNA Bind-n-Seq; molecule type: RNA; matrix: in vitro; tested at: 200 nM; notes: whole 134-nt RNA, ends assumed; together with: 150 mM KCl; baseline: input library; reading: higher = stronger binding; measurement: log2 enrichment
Target: Fragile X messenger ribonucleoprotein 1, C-terminal low-complexity region (Fmr1, Mus musculus, UniProt P35922)
Constant ends, left off below: GGGAGUUCUACAGUCCGACGAUC … UGGAAUUCUCGGGUGUCAAGG
UGGCCCUGGUGGCAUGCGGGGAGGAAGAGGUGGCCUCAUGGAUCGUGGUGGUACCGGUGGAAUGUUCAGAGGUGGCCGUGGUGGAGACAG: 0.0875
GGGUCUGUUGCAAAUAAAUUCUAUGUUCACAAUGAUAUCUUCAGAUACCAAGAUGAGGUCUUUGGUGGGUUUGUCACUGAGCCUCAGGAG: -1.42
ACCAUGCCGGUGGGCAUCUUUGGGAAGUGGGGCAAGGGGGGGAUAGGGAGGGGGGUAACACUUUGGGAACAGGUGGUCCCAGGUCGUUUC: 1.18
CAAGUCCUGUGCUACACAUCGUAUGUACCGAAUCGGGUGGGUUUUUUUGGGUGGGAAAGUAUUAUGUUACGCCGUUCGGAUCUGCACUUC: 0.663
AAGUCCUGUGCUACACAUCGUAUGUACCGAAUCGGGGUGGGGUUUGGGGAAAGGGGAAAGUAUUAUGUUACGCCGUUCGGAUCUGCACUU: 1.17
UAACUUUAGAGGAGGACCUGAUGGAUAUGGCAGUGGACGUGGAUUUGGGGAUGGCUAUAAUGGGUAUGGAGGAGGACCUGGAGGUGGCAA: 0.362
GUCCUGUGCUACACAUCGUAUGUACCGAAUCGGGGAAAGGGGUUUGGGGAAAAAGGGGAAAGUAUUAUGUUACGCCGUUCGGAUCUGCAC: 0.368
UCCUGUGCUACACAUCGUAUGUACCGAAUCGGGGAAAAAGGGGUUUUUUUGGGGAGGGGAAAGUAUUAUGUUACGCCGUUCGGAUCUGCA: 0.759
GUCCUGUGCUACACAUCGUAUGUACCGAAUCGGGGAAAAGGGGAAAAGGGGAAAAGGGGAAAGUAUUAUGUUACGCCGUUCGGAUCUGCA: 0.0975
UUUGGCAAUGAGAUCUAAACCAGACAAAGACCUCCUUAUGGAAGAAGAUGACAUGGCCUUGGCAAAUGUAGUCAUGCAGGAAGCUCAGAA: -1.6
GUCCUGUGCUACACAUCGUAUGUACCGAAUCGGGGUUUUUGGGUUUUUGGUUUUUGGGAAAGUAUUAUGUUACGCCGUUCGGAUCUGCAC: -0.339
UAACUUUAGAGGAGGAUCUGAUGGAUAUGGCAGUGGACGUGGAUUUGGGGAUGGCUAUAUUGGGUAUGGAGGAGGACCUGGAGGUGGCAA: 0.281
CAUAGACAACACGCACCCACACAGACACAGAGGGAAGGGGUUGGGAUGGGGACAGGGUGCACAGCAGGGCGGGGUAGGACCCCAGCCCCU: 1.31
AGUCCUGUGCUACACAUCGUAUGUACCGAAUCGGGGAAAAGGAAAAGGGAAAAGGGGAAAGUAUUAUGUUACGCCGUUCGGAUCUGCACU: 0.0562

Block 3 — method: RNA Bind-n-Seq; molecule type: RNA; matrix: in vitro; tested at: 20 nM; notes: 6-mer, flanks averaged, single round; together with: 150 mM KCl; baseline: input library; reading: higher = stronger binding; measurement: 6-mer enrichment (R)
Target: TAR DNA-binding protein 43, full length, His tag (TARDBP, Homo sapiens, UniProt Q13148, residues 1-414)
UAAUCA: 0.585
CCGGGG: 3.59
UGGGUU: 1.61
AGACCC: 0.668
AGAGGA: 1.66
CAUCAU: 0.57
GGCUCA: 0.971
UUCGCA: 0.609
GUCCGG: 1.57
GGUCAU: 0.866
UACAUU: 0.567
UGUAGG: 1.46
GUUAGA: 0.812

Block 4 — method: protein binding microarray; molecule type: double-stranded DNA, one strand shown; matrix: in vitro; tested at: not given; baseline: not given; reading: higher = stronger binding; measurement: E-score
Target: Histone acetyltransferase KAT6A, winged helix 2, GST fusion (KAT6A, Homo sapiens, UniProt Q92794, residues 85-181)
Notes: 8-mer, flanks averaged, mean of 2 arrays, mostly near background
Residues (chain): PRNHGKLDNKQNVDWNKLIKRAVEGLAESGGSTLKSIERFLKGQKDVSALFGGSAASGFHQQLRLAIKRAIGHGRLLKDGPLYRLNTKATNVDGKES
TCGATAGA: 0.0692
TAAGGATA: -0.0836
CCAACGTC: -0.215
TAATCTCA: -0.083
AATAGCCA: 0.0418
ACGCTATA: -0.171
CACCGCCG: 0.0671
AAGTATCG: 0.0742
ACGGTGCT: 0.0149
GAAATCTC: -0.0285
ACCTAGGA: -0.144
ACTCAACT: -0.0342
AAATGTCC: -0.178
ATCGAAAG: 0.00971
ATGAGAGG: -0.228
AACCTCGC: -0.0347
GTGTCGCA: -0.0574
CGGGGTAC: 0.0702
CGAATGCC: 0.0879
AGTCGGGC: 0.144
CACTTACA: -0.0499
AGTTGTCG: 0.115
GAGATATC: 0.0685
AAGACGTC: -0.17
CAAAATGA: 0.0169

Block 5 — method: protein-binding microarray; molecule type: double-stranded DNA, one strand shown; matrix: in vitro; tested at: 250 nM; notes: 60-bp whole probe; together with: salmon DNA 0.4 mg/ml; baseline: random background probes; reading: higher = stronger binding; measurement: log fluorescence; constant ends, left off below: GCCTAGCAC … GTCTTGATTCGCTTGACGCTGCTG
Target: Interferon regulatory factor 7, full length, phosphomimetic (IRF7, Homo sapiens, UniProt Q92985, residues 1-503, S101K/S471D/S472D/S475D/S476D/S477D/S483D/S484D/S487D)
Construct (chain): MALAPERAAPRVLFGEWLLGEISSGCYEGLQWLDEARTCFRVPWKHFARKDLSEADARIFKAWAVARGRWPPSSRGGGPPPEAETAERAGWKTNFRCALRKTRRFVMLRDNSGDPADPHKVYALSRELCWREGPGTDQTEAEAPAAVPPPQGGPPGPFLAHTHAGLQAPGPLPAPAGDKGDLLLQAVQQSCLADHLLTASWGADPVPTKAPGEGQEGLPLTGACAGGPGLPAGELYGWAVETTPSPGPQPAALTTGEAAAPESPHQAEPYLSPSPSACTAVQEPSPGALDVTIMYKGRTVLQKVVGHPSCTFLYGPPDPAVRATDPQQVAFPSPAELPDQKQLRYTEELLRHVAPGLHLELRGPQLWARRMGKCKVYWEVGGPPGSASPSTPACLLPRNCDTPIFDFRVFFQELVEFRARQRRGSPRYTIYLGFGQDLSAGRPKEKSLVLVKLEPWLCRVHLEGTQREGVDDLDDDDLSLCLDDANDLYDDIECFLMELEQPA
GTCTGTTTCCTCTTTCTTTGGTGCTAG: 2.35 z-score
GACGGACTGGGTCTCGGGAGGTGCTAG: -0.29 z-score
TTAGATATCAGTTTCGATTTGTGCTAG: 12.8 z-score
TTAGATTTCAGACTCGATTAGTGCTAG: 1.29 z-score
TTAGATGTCAGTATCGATTAGTGCTAG: 0.565 z-score
TTAGGACAGGACTTTCGGTTAGTGCTA: 0.892 z-score
CTTTCTTTAACATATTCTCTTGTGCTA: 1.55 z-score
TTAGGACAGGGTCTCGGTTAGTGCTAG: 1.16 z-score
TGAGGACTGGGGTATCGGTTAGTGCTA: -0.0941 z-score
TTAGGTCTTCTTTTCCTTTAGTGCTAG: 1.48 z-score
GACGATTTCAGATTGGAGACGTGCTAG: 0.267 z-score
TCAAACTTAGTTTTCAAACTGTGCTAG: 0.365 z-score
TTAGGTTTCGGCACTGGGTTAGTGCTA: 1.56 z-score
TTAGGTTGCCTTATCCTTTAGTGCTAG: 0.0204 z-score
GACGATCTCAGAGTGGAGACGTGCTAG: -0.242 z-score
GCCAAACACCCACATTCACCGTGCTAG: -0.103 z-score
GACGATTTCAGACTGGAAACGTGCTAG: 0.136 z-score
GACGGTTTCGGGTTTCGGGATGTGCTA: 12 z-score
TTGGAACTGAGTTTCGATTAGTGCTAG: 7.97 z-score
ATCATTTTCTCTGTTCTAGAGTGCTAG: 1.97 z-score
TTAGAACGGGGGACTGGATTAGTGCTA: 0.869 z-score
GACGGTTTCGACTATCGAGACGTGCTA: 5.77 z-score
CACTGACACCGATTTCATCACGTGCTA: -0.32 z-score
TTAGGTTTCGACTATGGGTTAGTGCTA: 4.61 z-score
GACTGTTTCCTTCTCCTGACGTGCTAG: 1.82 z-score

Block 6 — method: RNA Bind-n-Seq; molecule type: RNA; matrix: in vitro; tested at: not given; baseline: input RNA pool; reading: higher = stronger binding; measurement: bound/input enrichment
Target: RING finger protein unkempt homolog, zinc fingers 1-6, GST-SBP tag (UNK, Homo sapiens, UniProt Q9C0B0, residues 30-357)
Chain of UniProt Q9C0B0 (30-357, looked up): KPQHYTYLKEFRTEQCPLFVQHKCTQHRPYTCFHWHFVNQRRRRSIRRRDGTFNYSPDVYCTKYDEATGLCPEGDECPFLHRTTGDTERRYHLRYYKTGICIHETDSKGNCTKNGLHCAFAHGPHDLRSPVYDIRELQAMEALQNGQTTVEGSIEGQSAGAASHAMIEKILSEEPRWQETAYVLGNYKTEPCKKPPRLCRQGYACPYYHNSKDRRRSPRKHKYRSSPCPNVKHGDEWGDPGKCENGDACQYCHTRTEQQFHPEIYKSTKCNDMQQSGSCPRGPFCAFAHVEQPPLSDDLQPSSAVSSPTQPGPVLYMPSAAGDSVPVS
Notes: RNA with constant flanks, human-mouse chimeric sites, ends assumed
Constant ends, left off below: GGGAGUUCUACAGUCCGACGAUC … CAACAGAGGAUUGAGCAUCA
GAAACUAUUCCUAAAGAGGAGAAAGCUGAGAAGGAUGCUCGGAGAUCAUCUCUUGAGAAACAUAGAAAAGAAAAGCCUUUUAAAACCGGGAGAGGCAGAAUUUCCACUCCUGAAAGAAAA: 0.252 ratio
CCCCAAUUACCAUCUGUGGUCUGGAACUGCACUCUCUUUUUUAAAAAACAUGUAUACAUUUUAGGGCUGUAGAUUUAUUUUCCUGGUUUCUUUUCCAAUUGCUGACUUUUGAGCACAGAA: 1.91 ratio
UAUAUCACCAAUGUUCUACAAAAUCCUGAUUUGGCUCUGAGAAUGGCUGUGCGGAACAACUUAGCUGGUGCUGAAGAACUCUUUGCCCGGAAAUUUAAUGCUCUCUUCGCCCAGGGAAAC: 0.453 ratio
GGUGGGGUGGUCAUUGCCGUUUGAGCUCUGCUGAUUCAUGAGUCGCCUUCAAAACUCUCGUGUAGGGUUGACAAUGUGGGGGGGUGGGGGAUCCAGCUUAUUCUUUUAUUUUCAAGUCCA: 0.912 ratio
AGAUUCCCCCUCCUGAGACCUCCUCCGAAGUUGGAGUCUCUUACAGAUGCCUCAUCCCCUGUUAGCGUUUUGGUCUGGACCACCCAGCCUUGGACAAUUCCAGCCAACCAGGCAAUUUGC: 0.497 ratio
GCUCCUCCCCGCUCUGCAGCCUGGGGACUUUUGGCAAGGACCAGAAUCCAGCUUUCUUUUAAUAGUGUCAGUGUAACUGUAUCCCGUGACAUUUCAUUUUUUUUAAAUAGUGUAUUUUUU: 20.3 ratio
GCACUUCUCAAAUACUGGCCAAAGACUCACAGUCCAAAAGAAGUAAUGUUCUUAAAUGAAUUAGAAGAGAUUUUAGAUGUCAUUGAACCAUCAGAGUUUGUGAAGAUCAUGGAGCCUCUU: 0.204 ratio

For quick reference, copied from above (block 5):
GCCAAACACCCACATTCACCGTGCTAG: -0.103 z-score
GACGATTTCAGACTGGAAACGTGCTAG: 0.136 z-score
GACGGTTTCGGGTTTCGGGATGTGCTA: 12 z-score
TTGGAACTGAGTTTCGATTAGTGCTAG: 7.97 z-score
ATCATTTTCTCTGTTCTAGAGTGCTAG: 1.97 z-score
TTAGAACGGGGGACTGGATTAGTGCTA: 0.869 z-score
GACGGTTTCGACTATCGAGACGTGCTA: 5.77 z-score
